Results gathered from unrelated publications.
A part holds a random share of what one study measured.

Set 1
Target: Ras GTPase-activating protein-binding protein 1, full length (G3BP1, Homo sapiens, UniProt Q13283)
Sequence of UniProt Q13283 (whole entry, looked up): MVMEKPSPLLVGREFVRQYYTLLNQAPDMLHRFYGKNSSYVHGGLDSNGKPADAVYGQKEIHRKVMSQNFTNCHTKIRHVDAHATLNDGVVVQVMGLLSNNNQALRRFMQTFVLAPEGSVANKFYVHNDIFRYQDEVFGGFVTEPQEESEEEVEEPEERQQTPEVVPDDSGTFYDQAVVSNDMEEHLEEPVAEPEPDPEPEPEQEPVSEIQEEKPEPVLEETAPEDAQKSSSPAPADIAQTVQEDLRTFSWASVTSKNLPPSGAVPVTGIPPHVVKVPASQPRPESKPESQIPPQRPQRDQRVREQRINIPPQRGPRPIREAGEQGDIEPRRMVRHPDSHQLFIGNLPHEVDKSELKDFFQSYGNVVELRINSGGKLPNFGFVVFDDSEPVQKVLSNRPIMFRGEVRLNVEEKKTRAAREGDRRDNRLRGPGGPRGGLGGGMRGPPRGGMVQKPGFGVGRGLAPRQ
Technique: RNA Bind-n-Seq
Form: RNA
Matrix: in vitro
Tested at: 200 nM
Notes: whole 134-nt RNA, ends assumed
Added: 150 mM LiCl
Baseline: input library
Reading: higher = stronger binding
All molecules: 7-deaza-guanosine replaces G
Constant ends, left off below: GGGAGUUCUACAGUCCGACGAUC … UGGAAUUCUCGGGUGUCAAGG
| Strand | log2 enrichment |
| --- | --- |
| UGGCCCUGGUGGCAUGCGGGGAGGAAGAGGUGGCCUCAUGGAUCGUGGUGGUCCCGGUGGAAUGUUCAGAGGUGGCCGUAGUGGAGACAG | -0.345 |
| GUAAGUGUGGCAAUGUGAACUGAAGCUGAUGGGCUGAGAACAUGGACUGAGCUUGUGGUGUGCUUUGCAGGAGGACUUGAAGCAGAGUUC | 0.683 |
| CUCAAGUCCUGUGCUACACAUCGUAUGUACCGAAUCGGGCGGGCGGGGCGGGGAAAGUAUUAUGUUACGCCGUUCGGAUCUGCACUUCCA | -0.0905 |
| UCUAACUAAUUUUUCUUUGUUUUUUAACAGGAGAGGAGAUACUUACCCUUAAGUCAAGCCAGAAAAAGUGGUUUCCAAAUGGAUUGGCUG | -1.46 |
| AGUCCUGUGCUACACAUCGUAUGUACCGAAUCGGUUUUUUGGUUUUUUGGUUUUUUGGAAAGUAUUAUGUUACGCCGUUCGGAUCUGCAC | -0.961 |
| UCCUGUGCUACACAUCGUAUGUACCGAAUCGGGGUUUUUUUGGGGAGGGGAAAAAGGGGAAAGUAUUAUGUUACGCCGUUCGGAUCUGCA | 0.105 |
| ACCAUGCAGGUGGGCAUCUUUGGGAAGAAAGGCAAGGGGGGGAUAGGGAGGGGGGUAACACUUUGGGAACAGGUGGUCCCAGGUCGUUUC | 0.34 |
| UCCUGUGCUACACAUCGUAUGUACCGAAUCGGGAAAAAAGGGGAAAAAAGGGAAAAAAGGAAAGUAUUAUGUUACGCCGUUCGGAUCUGC | -0.125 |
| UGAUCAGCAAAGCCAAGAUGAGCCUUUGAGAAGCAGAAAAGUGUUUGUGGGGCGCUGUACAGAGGACAUGACUGAGGAUGAGCUGCGGGA | -1.37 |
| CUCAAGUCCUGUGCUACACAUCGUAUGUACCGAAUCGGAAAAAAAGGAGGUGGAAAGUAUUAUGUUACGCCGUUCGGAUCUGCACUUCCA | -0.515 |
| CUCAAGUCCUGUGCUACACAUCGUAUGUACCGAAUCGGGGAGGGAGGGGAGGGAAAGUAUUAUGUUACGCCGUUCGGAUCUGCACUUCCA | -0.322 |

Set 2
Target: RNA binding protein fox-1 homolog 2, RRM domain, GST-SBP tag (RBFOX2, Homo sapiens, UniProt O43251-10, residues 100-194)
Technique: RNA Bind-n-Seq
Form: RNA
Matrix: in vitro
Tested at: 365 nM
Notes: natural RNA segment, single round, ends assumed
Baseline: no-protein control
Reading: higher = stronger binding
Constant ends, left off below: GGGAGUUCUACAGUCCGACGAUC … UGGAAUUCUCGGGUGCCAA
Residues (chain): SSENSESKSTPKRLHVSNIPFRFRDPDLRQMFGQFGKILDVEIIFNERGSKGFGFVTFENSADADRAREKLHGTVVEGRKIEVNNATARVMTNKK
| Strand | RBNS enrichment (R) |
| --- | --- |
| GUCACUGUGAAUCGUGGCCCAGUCUCAGUUUGUAGUUUCUCAUUAAAUUGGCCCUUUCACUCCCCCGCCUGGGCCUCUGCUCUCUUGCCUGGCUUCCUUCUUUUUUGAGG | 0.589 |
| UCUCCAUACAAUAAGACACCUCCGAAGCAAAAUGGCGGCCCUUGCUCCAGGCAGGACAUCAGACUGUCUGGGGAGUUGGCCCUGGGCUUCUGUGUUGUGUGCAGAGACUG | 0.332 |
| AGCCCAACCACUCGGUUUCCUUCGGAUUUUCCUCCCUUUGUUCGGGGUUUGGUUUGGCUCCUCUGUGUGUGUCCGUAUCUUGUUCGGUGUCCUCGAGGUUGAGCUUCACU | 0.491 |
| AUGAAUGAAACUAUUACUCCUAAGAAUUACAUUGUAUAGCCCCACAGAUUAAAUUUAAUUAAUUAAUUCAAAACAUGUUAAACGUUACUUUCAUGUACUAUGGAAAAGUA | 1.36 |
| CCUAAAGACGGAUGAAUGAGUCUCUGUGGUGUUGCCUGCUCAUUGUGCAUACCCUUGGUAGACAUUUCUCAUAGUGUGUACUUAAAAAGUGCCUGACAUUGAUUUGUGUU | 0.751 |
| GCUUAGAAUGCAGCCCUACCUGGAGAUAGUGCGGGCACCUGUGGCCAAGUGGAGCAGAGGUGGACAUGGGGUUGGAUUGUUUUGAUUAUUUAUAGUUACACAAGGACUUC | 8 |
| GGCGCAUCUGCCCUGGUCAGCUGUUUCUCGAAGGGAGUGAUCUUAUCGAUAGAGGUAGAAAUGGUUUCCCUCCAAGGUUGGGUCAAUGUGUAAAUUGCUAUUCAACACUU | 0.553 |
| CUCCCCAAAAGCCACUGCUGGGAUGCUGGCCUCUGAUUUUUGAGCCAGCGUUGUCUCACUCUGAUCCCUACCCUGAGCCUGCUGAACUGCCCUCAGAGUGCUCAUAUGGG | 0.343 |
| GACUUCCCUAUGCCAGCACAUGUGCCCCAGGUGGGGCUGAGUACAGGUAACCUUGAGCUCAGCUUGGGCCAGCUUUGAACAGUGCUUCUGAGGUCCCCAGAGACCAAAGC | 0.333 |
| CCAAAUCCAAAAGAACACAUAGCUGUAACACAGCUGUAGUUGACUAGAAUGCUCUGUAUACUUUAUAUUAAAAAAUGCUUUGCAUUUCUUCCAGUGCAAUGAAAUUCAUA | 0.552 |
| UCCUCUGGACCCCCAGGAGGCUGGUGCCAGGGAGACAGGCCCAACCCACCCCCAUUUGCACUGAGAAGAGAAGUUUUGGAGCGUUGCCUCCUAGAAUAAAGAUACAGAGA | 0.407 |
| GCUCUCAGGCCCUUCCUGAUGUGAUGAAUGAAUCUACUAAUCAUUUCUUGACCAUUCAUUUUAUCACUUCUAACCUUGAAACAUGUGGAAGUAGCUAUGUUCCUGACUGU | 0.383 |

Set 3
Target: Hepatocyte nuclear factor 3-alpha (Foxa1, Mus musculus, UniProt P35582, residues 1-468, full length assumed)
Sequence of UniProt P35582 (whole entry, looked up): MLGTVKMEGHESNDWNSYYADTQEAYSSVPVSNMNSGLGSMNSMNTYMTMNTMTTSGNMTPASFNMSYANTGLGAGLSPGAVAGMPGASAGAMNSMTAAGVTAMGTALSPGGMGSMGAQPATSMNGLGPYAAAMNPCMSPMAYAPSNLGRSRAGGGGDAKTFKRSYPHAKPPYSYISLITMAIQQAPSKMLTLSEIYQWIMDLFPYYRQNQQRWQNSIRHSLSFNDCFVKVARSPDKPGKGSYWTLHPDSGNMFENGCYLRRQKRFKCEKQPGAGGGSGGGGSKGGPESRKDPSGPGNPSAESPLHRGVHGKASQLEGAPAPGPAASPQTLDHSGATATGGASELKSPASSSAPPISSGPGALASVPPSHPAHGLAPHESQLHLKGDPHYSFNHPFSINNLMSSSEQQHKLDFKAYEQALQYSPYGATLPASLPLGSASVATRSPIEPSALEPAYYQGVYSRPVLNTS
Technique: EMSA with sequencing
Form: double-stranded DNA, one strand shown
Matrix: in vitro
Tested at: 10 and 20 nM
Notes: whole designed probe, mean of two concentrations, ends assumed
Baseline: negative control set to 0
Reading: higher = stronger binding
Constant ends, left off below: GTGAGCGGTGCCCATTGATGGGGAAC … TTTCACTGGGATCGTGGGGAC
| Strand | normalised bound fraction |
| --- | --- |
| CTTCCCTAGCCCTGACTTCCCAAGCCTTAGTCATCACCCTCTCTCCCACCCAGGGCTCAGCACAGTACCTGGCACTGTCAAGCCCTCAATAAATGTTTACTGAGTGCATTAAAAAAAAAAAAAAGATTTTAATGAGTCATGCTTTAACTGAAGATTTTAGTGTAGTCAGTCATTGGGCCTTGGATGCCAAAGG | 0.151 ratio |
| TTTGCTCCCCACACCCATTGCCTGCCACAAAAGGGTATTTTGCCAACTTCAGTATGTAAACATTTAGGGATATAGATGAGCTGATCACATGTCTGTTTACATAGTTAATAATTTACGCATACACATTTAAACTTACTCATATAAAGTCATACACAATTTAGAATCATTACTTTTTGCTATTCTTACATTTCAG | 0.518 ratio |
| CTGGAAAATTATGTAGCCAGTCCTGCTGTCTCATGGTTAGCTTCAGGCAATCAGAGGAGGGAATGGTTTACTCCAGGAGGAATGGTGACTTCTTATTTGCTTATTCCACCCTTCTTTACCTTTGCCTTCAAAATGTTTATTCAGGGAGTCCTACTGCCTGCTGTTACTGGTGTTGGCAGAAGATAGCACTGGT | 0.368 ratio |
| ATCTTCCCCCTCTTCCTTGCCCCACCAGCTCACCTTCCCGGGTCAAAGTAAACAAGTGTTTACTTTGAAGCCGGCATTCGTTAACCCTCTTCACGCGCATACTGCCAAAGTAAACAGATCTAACATGGTCCTTTGGCGACGCCAGGCTCCGGGAGAGCAAAGCACCGTGTCAGGGCCATGATCCGGGGTGGCC | 0.541 ratio |
| ATTCTTGGGGGTGCGCTGATTCCAGGCTCTCGCCCCAGCTTTGGGCCCAGGGCAGTGAGCATGTGTAGTTACTTATCTAGGATTGCAACCTGAGTCATCTGTGAAACCAGGAAGTGAACTCGGGGTCCGGCATTGTATGGAAAGTTGGGTGAAATTACTTTTCTCTTAAAGCAAACTTTGATTGACTCTTTAA | 0.0126 ratio |
| TACTGATATAAAAATAGGCATATAGACCAATGGAACAGAATAGAGAACCCAGAAATAAAACCAAATACTTACAGCCAACAGATTTTTGACAAAGCAATCTAAAACATGAAGTGGGGAAAGGAAACCCTATTGAACAAATAATGGAGGGATGTTTAGCAAGCCACATGTAGAAGAATAAAACTGGAAACTCATC | 0.339 ratio |
| ATCTTCCCCCTCTTCCTTGCCCCACCAGCTCACCTTCCCGGGTTGTTTACTTTGAGCAAAGTAAACAAAGCCGGCATTCGTTAACCCTCTTCACGCGCATACTGCCAGAGCAAACAGATCTAACATGGTCCTTTGGCGACGCCAGGCTCCGGGAGAGCAAAGCACCGTGTCAGGGCCATGATCCGGGGTGGCC | 0.532 ratio |
| AAATAAGAAGCACATGTTAACTATTTAAAGTGCCTGGGAGTGTGATTCTTAATAACAAGACCAGGTGACTGCTAACAAGCCCAGGTGAGAAAAGTAAACAAGCTATGACTCAAACCCAGTCTACCTATTGAATTACGAACTTGCTTCCGAAGAACCAGACAGAGAGTCCTAAACCGGTCAAAAGCAAAGCAGG | 0.485 ratio |

Set 4
Target: Interferon regulatory factor 5, full length, phosphomimetic (IRF5, Homo sapiens, UniProt Q13568-2, residues 1-514, K96S/S451D/S453D/S456D/S462D)
Technique: protein-binding microarray
Form: double-stranded DNA, one strand shown
Matrix: in vitro
Tested at: 250 nM
Notes: 60-bp whole probe
Added: salmon DNA 0.4 mg/ml
Baseline: random background probes
Reading: higher = stronger binding
Constant ends, left off below: GCCTAGCAC … GTCTTGATTCGCTTGACGCTGCTG
| Strand | log fluorescence [z-score] |
| --- | --- |
| TTTGGACTGCTACTGCTTTAGTGCTAG | -0.235 |
| GACGATTTCAGGTTCGAGACGTGCTAG | 0.783 |
| GACGGTCTCGGTACCGGGACGTGCTAG | 0.126 |
| TTAGATAACAGTTTCGATTAGTGCTAG | 9.28 |
| AAACCATTTTTTTTCACTATGTGCTAG | 1.9 |
| TTAGGTATCGACACTGGGTTCGTGCTA | 2.36 |
| GGCTTCCTCTTTCTCTGCTAGTGCTAG | 0.57 |
| AGCCTGGCCAAGCTCACAGCGTGCTAG | -1.24 |
| GCCCCTCTCCTCTCAGGAGCTGTGCTA | -0.76 |
| TTAGGTAGCGGGTATCGGTTAGTGCTA | 3.18 |
| TTAGATTACGGGTTTCGATTAGTGCTA | 6.53 |
| TTAGGACTGCTTCTCCATTAGTGCTAG | -0.187 |
| TCAACTCTGCCTCTAACACTGTGCTAG | 0.0944 |
| TTAGATATCGGGTATCGATGAGTGCTA | 4.62 |
| GACGGTCTCAGTATCGGGACGTGCTAG | 1.54 |
| TCAGGTTTCGACTTTCGGTTAGTGCTA | 10.8 |
| ATTTTGAGGTGGAGAGATAAGTGCTAG | 0.403 |
| GACGGAATCCTTATCCTGACGTGCTAG | -0.247 |
| GACGGTCTCGGACGGGGGACGTGCTAG | 0.407 |
